Published values collected from several papers.
Each numbered part is a random draw from the data of one study; scales do not carry over between parts.

Sample 1
Target: Prothrombin, mature alpha-thrombin (F2, Homo sapiens, UniProt P00734)
Method: aptamer microarray, sandwich
Molecule type: DNA with 2'F-ANA
Matrix: in vitro
Concentration: 200 nM
Setting: whole 15-mer aptamer, many near background
With: Cy3 exosite-II aptamer, 400 nM
Direction: higher = stronger binding
Sequence: GGTTGGTGTGGTTGG
Modification | mean fluorescence intensity
2'F-ANA at 1 2 5 9 10 13 15 | 44.4 a.u.
2'F-ANA at 1 4 6 8 11 14 | 49 a.u.
2'F-ANA at 1 2 3 5 6 7 10 12 13 14 15 | 50.2 a.u.
2'F-ANA at 2 4 9 10 11 15 | 80 a.u.
2'F-ANA at 1 2 3 5 6 7 8 10 11 15 | 54.6 a.u.
2'F-ANA at 1 2 6 9 10 | 56.2 a.u.
2'F-ANA at 2 5 7 9 10 11 13 14 | 112 a.u.
2'F-ANA at 1 2 3 6 7 9 10 11 14 15 | 54.2 a.u.
2'F-ANA at 2 3 6 7 8 11 12 | 1020 a.u.
2'F-ANA at 1 2 3 5 6 7 8 9 10 11 13 | 50.1 a.u.
2'F-ANA at 1 3 4 5 7 9 11 12 13 15 | 62.1 a.u.
2'F-ANA at 1 3 5 6 10 12 15 | 53.2 a.u.
2'F-ANA at 3 5 6 7 10 12 13 14 15 | 51.2 a.u.
2'F-ANA at 1 2 5 8 10 11 12 13 15 | 103 a.u.
2'F-ANA at 7 8 9 10 12 14 15 | 121 a.u.
2'F-ANA at 1 2 4 6 9 10 11 14 15 | 51.2 a.u.
2'F-ANA at 6 7 8 9 11 14 15 | 142 a.u.
2'F-ANA at 2 13 | 376 a.u.
2'F-ANA at 3 5 6 7 10 11 14 15 | 50.3 a.u.
2'F-ANA at 2 3 5 6 7 8 9 10 11 12 13 15 | 55.7 a.u.
2'F-ANA at 1 2 3 6 8 11 13 15 | 177 a.u.
2'F-ANA at 4 6 7 8 9 10 12 | 125 a.u.
2'F-ANA at 2 3 5 8 9 10 11 13 15 | 53.5 a.u.
2'F-ANA at 1 4 5 6 11 14 15 | 46.6 a.u.
2'F-ANA at 1 2 4 5 6 8 9 12 13 15 | 84.7 a.u.

Sample 2
Target: Fragile X messenger ribonucleoprotein 1, C-terminal low-complexity region (Fmr1, Mus musculus, UniProt P35922)
Method: RNA Bind-n-Seq
Molecule type: RNA
Matrix: in vitro
Concentration: 200 nM
Setting: whole 134-nt RNA, ends assumed
With: 150 mM LiCl
Relative to: input library
Direction: higher = stronger binding
Each molecule: 7-deaza-guanosine replaces G
Shared flanks, not repeated: GGGAGUUCUACAGUCCGACGAUC … UGGAAUUCUCGGGUGUCAAGG
Sequence | log2 enrichment
UGGGAGGUGGAUUUUGUUUAUUUUUUUAGCUCAUUGCCAGGGGUGGGAAUUUUUUUUUAAUAUGUGUCAUGAAUAAAGUUGUUUUUGAAA | 1.12
CAAGUCCUGUGCUACACAUCGUAUGUACCGAAUCGGGUUUGGUUUGGGGUUUGGGAAAGUAUUAUGUUACGCCGUUCGGAUCUGCACUUC | -1.79
CCUGUGCUACACAUCGUAUGUACCGAAUCGGGGUUUUUUGGGUUUUUUGGUUUUUUGGGGAAAGUAUUAUGUUACGCCGUUCGGAUCUGC | -1.16
UAACUUUAGAGGAGGAUGUGAUGGAUAUGGCAGUGGACGUGGAUUUGGGGAUGGCUAUAAUGGGUAUGGAGGAGGACCUGGAGGUGGCAA | 0.802
UGGGAGGUGGAUUUUGUUUAUUUUUUUAGCUCAUUUCCAGGGGUGGUAAUUUUUUUUUAAUAUGUGUCAUGAAUAAAGUUGUUUUUGAAA | 0.101
UGGGAGGUGGAUUUUGUUUAUUUUUUUAGCUCAUUUCCAGGGGUGGGAAUUUUUUUUUAAUAUGUGUCAUGAAUAAAGUUGUUUUUGAAG | -0.0902
UAGUGAUGAAAAAUUUCUCCCUUCUAGGUUUCCCUUGGGGGCUUUGAAAUAACACCACCAGUGGUCUUAAGGUUGAAGUGUGGUUCAGGG | -1.64
CCUGUGCUACACAUCGUAUGUACCGAAUCGGGAAAAAAAGGGAAAAAGGGAAAAAAAGGGAAAGUAUUAUGUUACGCCGUUCGGAUCUGC | -0.349
ACCAUGCAGGUGGGCAUCUUUGGGAAGUGGGGCAAGGGGGGGAUAGGGAGGGGGGUAACACAAAGGGAACAGGUGGUCCCAGGUCGUUUC | 1.57
UCCUCAAGUCCUGUGCUACACAUCGUAUGUACCGAAUCGGGAGGGAGGAGGAAAGUAUUAUGUUACGCCGUUCGGAUCUGCACUUCCAGC | -2.16
UCAAGUCCUGUGCUACACAUCGUAUGUACCGAAUCGGGGAGGGGAGGGGAGGGGAAAGUAUUAUGUUACGCCGUUCGGAUCUGCACUUCC | 0.25

Sample 3
Target: Histone acetyltransferase KAT6A, winged helix 2, GST fusion (KAT6A, Homo sapiens, UniProt Q92794, residues 85-181)
Method: protein binding microarray
Molecule type: double-stranded DNA, one strand shown
Matrix: in vitro
Concentration: not given
Setting: 8-mer, flanks averaged, mean of 2 arrays, mostly near background
Relative to: not given
Direction: higher = stronger binding
Target sequence (chain): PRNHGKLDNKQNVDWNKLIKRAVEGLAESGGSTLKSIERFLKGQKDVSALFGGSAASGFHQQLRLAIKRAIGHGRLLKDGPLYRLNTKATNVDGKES
Sequence | E-score
CGGGCTAA | 0.0593
GTTCGGAA | 0.169
AGTTAGAA | 0.076
GCTACTGA | 0.047
ATTGTACA | -0.158
GTGGGAGA | 0.00536
CCAGGTAG | -0.0857
CTCATCAG | 0.0815
GCAGAACA | 0.0122
GATTATGC | -0.0131
AGTAGATG | -0.12
ATGTGGAA | -0.095
AATGTCGC | -0.113
GAGGACTA | -0.138
GGATTTGA | -0.0219
TAGAAGCA | -0.0272
AGCTACTG | 0.0713
AACCGCTG | -0.168
AGGATAGA | -0.00511
ACTCGGGC | 0.0571
AATCAATC | -0.00471
AGCGGCCG | 0.174
ACCGTAAC | -0.0833
AGAAATGC | 0.0514
CTGCTGGC | 0.0117

Sample 4
Target: RNA binding protein fox-1 homolog 2, RRM domain, GST-SBP tag (RBFOX2, Homo sapiens, UniProt O43251-10, residues 100-194)
Method: RNA Bind-n-Seq
Molecule type: RNA
Matrix: in vitro
Concentration: 365 nM
Setting: natural RNA segment, single round, ends assumed
Relative to: no-protein control
Direction: higher = stronger binding
Shared flanks, not repeated: GGGAGUUCUACAGUCCGACGAUC … UGGAAUUCUCGGGUGCCAA
Construct (chain): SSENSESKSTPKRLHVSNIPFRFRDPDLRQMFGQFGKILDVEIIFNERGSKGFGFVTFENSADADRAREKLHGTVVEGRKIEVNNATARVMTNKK
Sequence | RBNS enrichment (R)
UAAGGGUAAUCUUCCUUCUCUGAUUACAGGAGCUGAAAUUUGACUUUUCUAACAGGCUCAGUCCUUACGAGCUUCUCAACACUGGUUCUUCUGUUAAGAGUGACUGUUCA | 0.243
UGGAUAAACAAAUGCUUGUUGAUAGCCUUUUUCUAUCAAGAAACCAAGGAGCUAAUUAUUAAUAACAAUCAUUGCACACUGAGUCUUAGCGUUUCUGAUGGAAACAGUUU | 0.709
UUGACCUUUUAGAGUCUGCAUACCCACCUGUAUAACAAGGUGGAUUGAAUGAGACAAUGCCCACGAAAUGCCCAGUUACAGUACCUGGUUCAAAACUUACUGCAUUUUAA | 0.628
UCUCUCCUUCCCUCCCACCACCACCAGGACCCCCGGGGCUGUAGCCUCCUCUCUGAUCAGAGCCGACACCAGACGUGAUUAGCAGGCGCAGCAAAUUCAAUUUGUUAAAU | 0.731
UGUACACUCCACUCUGCUACAGCAGCAUGGUGAGGACCCACCACAGGAGCUGUGCUCCUCAGAGGGCAGAAUCUACAUUAAGUGCCGCCCAAAGGAGAGUGCGUUGUCAU | 0.284
AACUGUCACCCAUAUGGUCCCUGGGCCACCGGGCAGCCUGGGGCGGUGUGUGUGCCAUGUCACAGCAUGGCCUCUCGGCCUUGGGAAGGAAGGCAGUGCCUGCUCUGCUG | 0.607
AGCAUUUAUUCUUGGGUCCUUUAGCCAAACCCAUUCCCUCUUCCUCCCAUGCAAGUUCUUUUGGGAACACCCAGAAAACUUCUCUGAGAAGAAAAAUGGAAGGUAAGUUG | 7.54
CGAGAGGGCACGGGUGGGUGCUCACAGUGGGACCUUCUUGGAGGAAUCUCAGAGGGGGACAGAGAUGAGAUGUGCAUUCCUGGCUGCCACCUGCAUUCCUGAGGAACUCU | 0.764
CCAUCAAUAAAGAUGUCCAGGCAGUGAGCGUACUUUUUACACCCUGUAGAAUUGUGGGCUGUAGCGUUACUCUGAUUUUCUGUCUAGUAUCAGAGAAUGCUGGUAGCUUA | 0.223
ACGGGUGGAGGACCUCUAGGUGCGUAUGUAUUUCCCUUGGAAGGAACAGGAAGUUUGCUCUAAGAUGAGACUGUUGUUGUCUGGACUUCCUCUAGAAAUCCCAGCAGAAU | 1.14
AGUCCACCCCCUAGACAGCAAUGCCCUCUGGACUUGAUCCUGAGCCUAAUAAACCUGUGUGCACUCCUUUAGGUCCCAGCACUUUCUUCCUAUGGGUGGUCCAGACAAAA | 0.425
GGAUUUACUAAUCUAGUGGAAUAUGCAUGGAUCAGACUGUGGCAUACAAGUCGUGCAGAGCAUGAAGCAGCUUACCUAACUCUUAAACUAUCCUAAGCAAUGUGUGCUUG | 27.6

Repeated from above (sample 1):
Modification | mean fluorescence intensity
2'F-ANA at 1 2 3 5 6 7 8 9 10 11 13 | 50.1 a.u.
2'F-ANA at 2 3 6 7 8 11 12 | 1020 a.u.
2'F-ANA at 3 5 6 7 10 11 14 15 | 50.3 a.u.
2'F-ANA at 2 4 9 10 11 15 | 80 a.u.
2'F-ANA at 7 8 9 10 12 14 15 | 121 a.u.
2'F-ANA at 2 3 5 6 7 8 9 10 11 12 13 15 | 55.7 a.u.
2'F-ANA at 1 2 3 6 7 9 10 11 14 15 | 54.2 a.u.
2'F-ANA at 4 6 7 8 9 10 12 | 125 a.u.
2'F-ANA at 1 4 6 8 11 14 | 49 a.u.
2'F-ANA at 1 2 3 5 6 7 8 10 11 15 | 54.6 a.u.
2'F-ANA at 1 2 3 6 8 11 13 15 | 177 a.u.
